{"data": "Measured values pooled from the literature", "PIK3CA": "Phosphatidylinositol 4,5-bisphosphate 3-kinase catalytic subunit alpha isoform (PIK3CA, Homo sapiens, UniProt P42336)", "PIK3CA E545A": "Phosphatidylinositol 4,5-bisphosphate 3-kinase catalytic subunit alpha isoform (PIK3CA, Homo sapiens, UniProt P42336, E545A)", "PIK3CA H1047Y": "Phosphatidylinositol 4,5-bisphosphate 3-kinase catalytic subunit alpha isoform (PIK3CA, Homo sapiens, UniProt P42336, H1047Y)", "PIK3CA C420R": "Phosphatidylinositol 4,5-bisphosphate 3-kinase catalytic subunit alpha isoform (PIK3CA, Homo sapiens, UniProt P42336, C420R)", "PIK3CA E542K": "Phosphatidylinositol 4,5-bisphosphate 3-kinase catalytic subunit alpha isoform (PIK3CA, Homo sapiens, UniProt P42336, E542K)", "note": "Each line is one published result; not all experiments were run side by side."}
{"SMILES": "COc1c(Cl)cccc1Nc1c(-c2ccncc2C#C[C@@]2(C)CCCN2C(=O)/C=C/CN(C)C)[nH]c2c1C(=O)NCC2", "target": "PIK3CA", "observed": "cell-free assay", "method": "competition with immobilised ligand", "tested at": "3 µM", "remaining binding [%]": 73}
{"SMILES": "CC(=O)c1cnc(N)nc1N1CC[C@H]1c1nn2ccc(Cl)c2c(=O)n1-c1ccccc1", "target": "PIK3CA E545A", "observed": "binding", "method": "competition with immobilised ligand", "tested at": "10 µM", "remaining binding [%]": 46}
{"SMILES": "C=CC(=O)N1CCc2ccc(-n3c(=O)ccc4cnc5ccc(-c6cnn(C)c6)cc5c43)cc21", "target": "PIK3CA H1047Y", "method": "KINOMEscan", "tested at": "1 µM", "relative to": "DMSO control", "remaining binding [%]": 42}
{"SMILES": "C=CC(=O)N1CCCC(n2c(=O)c3ncccc3n(Cc3ccc(Oc4ccccc4)cc3)c2=O)C1 (centres unmarked)", "target": "PIK3CA C420R", "observed": "cell-free assay", "method": "competition with immobilised ligand", "tested at": "1 µM", "remaining binding [%]": 93}
{"SMILES": "CC(C)=CC1OC(C)(C)C2C=C3C(=O)C(Cl)=CC(O)C3C3C(O)C4OC4C(=O)C132 (centres unmarked)", "target": "PIK3CA E542K", "observed": "cell-free assay", "method": "competition with immobilised ligand", "tested at": "10 µM", "remaining binding [%]": 63}
{"SMILES": "Cc1cnc2nc1Nc1cccc(c1)COC/C=C/COCc1cc(ccc1OCCN1CCOCC1)N2", "target": "PIK3CA E545A", "observed": "binding", "tested at": "0.1 µM", "remaining binding [%]": 61}
{"SMILES": "CNC1C[S+]2CC[S+]3CC[S+](C1)[Ru-4]321([N]=C=S)[n]2c3ccc(OC)cc3c3c4c(c5cc(F)c[n+]1c5c32)C(=O)NC4=O (centres unmarked)", "target": "PIK3CA", "method": "KinomeScan", "tested at": "0.1 µM", "relative to": "untreated", "remaining binding [%]": 100}
{"SMILES": "Cc1ccc(-c2c(/C=C(\\C#N)C(=O)NC(C)C)n(CCCO)c3ncnc(N)c23)cc1", "target": "PIK3CA (Homo sapiens, UniProt P42336, H1047L)", "observed": "cell-free assay", "method": "competition with immobilised ligand", "tested at": "1 µM", "remaining binding [%]": 93}
{"SMILES": "Nc1ncc2c(n1)-c1c([nH]c3ccc(C4=CCOCC4)cc13)CCC2", "target": "PIK3CA H1047Y", "observed": "binding", "method": "competition with immobilised ligand", "tested at": "1 µM", "remaining binding [%]": 92}
{"SMILES": "CCN1CCN(Cc2ccc(C(=O)Nc3ccc(C)c(NCc4cnc5[nH]ccc5c4OC)c3)cc2C(F)(F)F)CC1", "target": "PIK3CA E542K", "observed": "binding", "method": "competition with immobilised ligand", "tested at": "1 µM", "remaining binding [%]": 97}
{"SMILES": "CNC(=O)C1CCN(c2cc(C)c(F)cc2NC(=O)c2ccc(-c3cc(O)ccc3C)c(C)c2)CC1", "target": "PIK3CA C420R", "observed": "binding", "method": "competition with immobilised ligand", "tested at": "1 µM", "remaining binding [%]": 89}
